Published values collected from several papers.
Each line is one published result; not all experiments were run side by side. Numbers after ± are the reported error.
U2AF2: U2AF2 148-342 (Homo sapiens, UniProt P26368)
Sequence of UniProt P26368 (whole entry, looked up): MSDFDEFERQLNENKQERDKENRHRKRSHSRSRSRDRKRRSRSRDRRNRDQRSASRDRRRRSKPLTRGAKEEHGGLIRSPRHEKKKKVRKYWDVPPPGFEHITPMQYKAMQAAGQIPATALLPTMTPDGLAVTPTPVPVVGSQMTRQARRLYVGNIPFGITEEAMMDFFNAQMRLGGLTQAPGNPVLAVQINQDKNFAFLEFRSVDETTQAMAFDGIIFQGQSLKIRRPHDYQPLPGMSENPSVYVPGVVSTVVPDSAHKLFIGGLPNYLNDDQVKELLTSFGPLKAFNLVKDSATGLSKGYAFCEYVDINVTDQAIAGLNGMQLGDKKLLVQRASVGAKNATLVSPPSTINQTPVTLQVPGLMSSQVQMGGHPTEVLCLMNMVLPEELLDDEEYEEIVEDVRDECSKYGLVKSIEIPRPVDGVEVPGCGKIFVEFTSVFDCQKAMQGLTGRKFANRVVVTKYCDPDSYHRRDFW
T1: spt16/pob3 C-terminal deleted 1-937 (Schizosaccharomyces pombe); chain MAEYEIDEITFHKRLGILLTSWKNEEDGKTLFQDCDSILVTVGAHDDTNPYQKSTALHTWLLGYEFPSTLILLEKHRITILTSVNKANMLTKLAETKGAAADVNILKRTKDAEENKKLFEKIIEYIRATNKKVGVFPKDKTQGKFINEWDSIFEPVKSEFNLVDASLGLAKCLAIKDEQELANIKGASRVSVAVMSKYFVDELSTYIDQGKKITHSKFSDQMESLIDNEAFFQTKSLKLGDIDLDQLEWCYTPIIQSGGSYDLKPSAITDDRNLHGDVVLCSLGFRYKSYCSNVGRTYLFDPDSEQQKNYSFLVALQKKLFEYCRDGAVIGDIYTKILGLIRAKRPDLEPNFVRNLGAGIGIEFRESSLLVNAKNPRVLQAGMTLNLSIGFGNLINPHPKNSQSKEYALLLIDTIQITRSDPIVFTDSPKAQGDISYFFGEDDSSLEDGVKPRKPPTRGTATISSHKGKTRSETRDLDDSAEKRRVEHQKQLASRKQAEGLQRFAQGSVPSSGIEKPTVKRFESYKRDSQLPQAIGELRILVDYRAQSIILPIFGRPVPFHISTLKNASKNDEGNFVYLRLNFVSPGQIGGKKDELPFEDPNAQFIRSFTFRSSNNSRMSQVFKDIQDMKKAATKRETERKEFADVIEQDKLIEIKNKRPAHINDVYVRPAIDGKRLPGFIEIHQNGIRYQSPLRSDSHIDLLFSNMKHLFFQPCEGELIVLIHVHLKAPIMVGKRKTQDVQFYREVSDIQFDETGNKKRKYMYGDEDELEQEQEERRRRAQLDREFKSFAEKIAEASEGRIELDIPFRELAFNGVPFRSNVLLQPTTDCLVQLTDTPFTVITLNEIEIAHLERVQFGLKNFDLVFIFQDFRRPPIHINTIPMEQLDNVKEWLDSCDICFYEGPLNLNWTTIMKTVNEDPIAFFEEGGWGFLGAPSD; chain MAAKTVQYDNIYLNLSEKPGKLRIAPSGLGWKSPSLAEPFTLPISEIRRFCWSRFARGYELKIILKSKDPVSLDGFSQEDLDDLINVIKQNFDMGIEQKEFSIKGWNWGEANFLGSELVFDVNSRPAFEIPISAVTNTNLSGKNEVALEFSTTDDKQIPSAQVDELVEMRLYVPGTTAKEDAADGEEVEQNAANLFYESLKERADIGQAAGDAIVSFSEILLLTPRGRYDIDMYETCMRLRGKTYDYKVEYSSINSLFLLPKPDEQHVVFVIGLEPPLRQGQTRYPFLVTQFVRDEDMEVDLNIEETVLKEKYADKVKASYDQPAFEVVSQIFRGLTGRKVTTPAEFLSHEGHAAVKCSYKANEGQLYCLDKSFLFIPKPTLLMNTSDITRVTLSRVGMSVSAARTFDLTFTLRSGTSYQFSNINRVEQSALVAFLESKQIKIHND
B1: POL30 1-258 (Saccharomyces cerevisiae, UniProt P15873); chain MLEAKFEEASLFKRIIDGFKDCVQLVNFQCKEDGIIAQAVDDSRVLLVSLEIGVEAFQEYRCDHPVTLGMDLTSLSKILRCGNNTDTLTLIADNTPDSIILLFEDTKKDRIAEYSLKLMDIDADFLKIEELQYDSTLSLPSSEFSKIVRDLSQLSDSINIMITKETIKFVADGDIGSGSVIIKPFVDMEHPETSIKLEMDQPVDLTFGAKYLLDIIKGSSLSDRVGIRLSSEAPALFQFDLKSGFLQFFLAPKFNDEE
B2: Rai14 17-400 (Mus musculus, UniProt Q9EP71); sequence looked up; chain NKNDDRLLQAVENGDAEKVASLLGKKGASATKHDSEGKTAFHLAAAKGHVECLKVMVTHGVDVTAQDSSGHSALHVAAKNGHPECIRKLLQYKSPAENIDNSGKTALHYAAAQGCLQAVQLLCEHKSPINLKDLDGNIPLLVAVQNGHSEACHFLLDHGADVNSRDKNGRTALMLACETGSSNTVDALIKKGADLSLVDSLGHNALHYSKLSENAGIQNLLLSKISQDADLKTPTKPKQHDQVSKISSERSGTPKKRKAPPPPISPTQLSDVSSPRSITSTPLSGKESVFFAEAPFKAEISSIQENKDRLSDSTAGADSLLDISSEADQQDLLVLLQAKVASLTLHNKELQDKLQAKSPKDKEAEADLSFQSFHSTQTDLAPSP
B3: abo1 (Schizosaccharomyces pombe, UniProt O14114); chain MKEEASEHGGSADETQELSPVSDSSDEMPNNAKRRRRSQSMIANKRIHQAFQEDEGDEDWEEEEHKPKAKRRYNTRSNESFSEGDDEPFEVSESSALEDELSDSEDSFIRSVRSKPKYKPGTRRSTRLRNRRSQDEEESEEEHRPILRERTSRINYSVPLAFPPVDEMDGDPSSQVNQSRSRKTHSELAITKLLRQQVSSFMPYIDSSGSESESDNTRIKKSSAKTIKALTDPANSGGPPDFGRIREKSDLADSDPLGVDSSLSFESVGGLDNYINQLKEMVMLPLLYPEIFQRFNMQPPRGVLFHGPPGTGKTLMARALAAACSSENKKVSFYMRKGADCLSKWVGEAERQLRLLFEEAKSTQPSIIFFDEIDGLAPVRSSKQEQIHASIVSTLLALMDGMESRGQVIIIGATNRPDAVDPALRRPGRFDREFYFPLPDRDARKKIIEIHTRNWDPPVPEWLCSMLAEKSKGYGGADLRALCTEAALNSIKRTYPQLYRSTKRLQIDPKTIKVKVKDFVMSMKRMIPSSERSSISPSKPLSPELKPLLNEAFQDIEKTLQKLMPVASKLNPLEEVMYDDPKENDFEYQQRLETFETLRIYKPRFLICGRKGLGQTALGPAILQQYEGVHVQSFDMSTLLQDSTQSIETSIIHLFLEVRRHTPSIIYIPDIDNWLNVLPLTAITTFSSMLERLDFSDQILFLALSSSPLSELHPQLREWFSSKQSVYSLQYPTRDSIIAFFQPILELIKASPTELPGGIPRKRRVLPELPLAPDPPPFTSQKITLKQTKQADMRLLNKLKIKLNALLGSLRARYRKFKKPLIDFNDIYCVDPETGHSYRSREECHYEFVDDVVKQIGSDQKFSMMSLEEIEKRTWDNCYCTPKQFVHDIKLILRDALQLEDSETIKRAQEMYANVLLGVEDMEDDQFSQRCERMALREAERRKLRHGKLQKHLDETKADMQFTSEKPSVDESITEVDDAIKDGPPVLAETLTNSLMEDVGPENVDMDIEDNEIFTNQSTMSVPSMLVENEESPKPDEYIDQKDKVQSPLLNGKSPVGVPSEAALRVSTDVSTNISSNGRADIPVDTLITSPADVPNNAPTDAHNITSADGHIENIEQEVVFPDLVFDEDRLTPLKQLLIDSTTGFTVDQLLHLHSFLYQIIWNTKSEWNRNSVVDECERAVKEFMINALQ
B4: VAMP8 8-73 (Homo sapiens, UniProt Q9BV40); chain GGNDRVRNLQSEVEGVKNIMTQNVERILARGENLEHLRNKTEDLEATSEHFKTTSQKVARKFWWKN
B5: PFD3 (Arabidopsis thaliana, UniProt P57741); sequence looked up; chain MSSSSPSGSGSDLTERRGIPAAKFIQDVETYLSQSGLDPNSALAFHQERLQQYKVVEMKLLAQQRDLQAKIPDIEKCLEVVATLEAKKGTGEALLADFEVSEGIYSRACIEDTDSVCLWLGANVMLEYSCEEASALLKNNLENAKASLEVLVADLQFLRDQVTVTQVTIARVYNWDVHQRRVKQVTPTAIAVADS
B6: CCDC93 305-433 (Homo sapiens, UniProt Q567U6); chain SPEKLGTSQLHRRKVISLNKQIAQKTKHLEELRASHTSLQARYNEAKKTLTELKTYSEKLDKEQAALEKIESKADPSILQNLRALVAMNENLKSQEQEFKAHCREEMTRLQQEIENLKAERAPRGDEKT
B7: SETX 1-1721 (Homo sapiens, UniProt Q7Z333); sequence looked up; chain MSTCCWCTPGGASTIDFLKRYASNTPSGEFQTADEDLCYCLECVAEYHKARDELPFLHEVLWELETLRLINHFEKSMKAEIGDDDELYIVDNNGEMPLFDITGQDFENKLRVPLLEILKYPYLLLHERVNELCVEALCRMEQANCSFQVFDKHPGIYLFLVHPNEMVRRWAILTARNLGKVDRDDYYDLQEVLLCLFKVIELGLLESPDIYTSSVLEKGKLILLPSHMYDTTNYKSYWLGICMLLTILEEQAMDSLLLGSDKQNDFMQSILHTMEREADDDSVDPFWPALHCFMVILDRLGSKVWGQLMDPIVAFQTIINNASYNREIRHIRNSSVRTKLEPESYLDDMVTCSQIVYNYNPEKTKKDSGWRTAICPDYCPNMYEEMETLASVLQSDIGQDMRVHNSTFLWFIPFVQSLMDLKDLGVAYIAQVVNHLYSEVKEVLNQTDAVCDKVTEFFLLILVSVIELHRNKKCLHLLWVSSQQWVEAVVKCAKLPTTAFTRSSEKSSGNCSKGTAMISSLSLHSMPSNSVQLAYVQLIRSLLKEGYQLGQQSLCKRFWDKLNLFLRGNLSLGWQLTSQETHELQSCLKQIIRNIKFKAPPCNTFVDLTSACKISPASYNKEESEQMGKTSRKDMHCLEASSPTFSKEPMKVQDSVLIKADNTIEGDNNEQNYIKDVKLEDHLLAGSCLKQSSKNIFTERAEDQIKISTRKQKSVKEISSYTPKDCTSRNGPERGCDRGIIVSTRLLTDSSTDALEKVSTSNEDFSLKDDALAKTSKRKTKVQKDEICAKLSHVIKKQHRKSTLVDNTINLDENLTVSNIESFYSRKDTGVQKGDGFIHNLSLDPSGVLDDKNGEQKSQNNVLPKEKQLKNEELVIFSFHENNCKIQEFHVDGKELIPFTEMTNASEKKSSPFKDLMTVPESRDEEMSNSTSVIYSNLTREQAPDISPKSDTLTDSQIDRDLHKLSLLAQASVITFPSDSPQNSSQLQRKVKEDKRCFTANQNNVGDTSRGQVIIISDSDDDDDERILSLEKLTKQDKICLEREHPEQHVSTVNSKEEKNPVKEEKTETLFQFEESDSQCFEFESSSEVFSVWQDHPDDNNSVQDGEKKCLAPIANTTNGQGCTDYVSEVVKKGAEGIEEHTRPRSISVEEFCEIEVKKPKRKRSEKPMAEDPVRPSSSVRNEGQSDTNKRDLVGNDFKSIDRRTSTPNSRIQRATTVSQKKSSKLCTCTEPIRKVPVSKTPKKTHSDAKKGQNRSSNYLSCRTTPAIVPPKKFRQCPEPTSTAEKLGLKKGPRKAYELSQRSLDYVAQLRDHGKTVGVVDTRKKTKLISPQNLSVRNNKKLLTSQELQMQRQIRPKSQKNRRRLSDCESTDVKRAGSHTAQNSDIFVPESDRSDYNCTGGTEVLANSNRKQLIKCMPSEPETIKAKHGSPATDDACPLNQCDSVVLNGTVPTNEVIVSTSEDPLGGGDPTARHIEMAALKEGEPDSSSDAEEDNLFLTQNDPEDMDLCSQMENDNYKLIELIHGKDTVEVEEDSVSRPQLESLSGTKCKYKDCLETTKNQGEYCPKHSEVKAADEDVFRKPGLPPPASKPLRPTTKIFSSKSTSRIAGLSKSLETSSALSPSLKNKSKGIQSILKVPQPVPLIAQKPVGEMKNSCNVLHPQSPNNSNRQGCKVPFGESKYFPSSSPVNILLSSQSVSDTFVKEVLKWKYEMFLNFGQCGP
Sequence of UniProt Q8TER5 (whole entry, looked up): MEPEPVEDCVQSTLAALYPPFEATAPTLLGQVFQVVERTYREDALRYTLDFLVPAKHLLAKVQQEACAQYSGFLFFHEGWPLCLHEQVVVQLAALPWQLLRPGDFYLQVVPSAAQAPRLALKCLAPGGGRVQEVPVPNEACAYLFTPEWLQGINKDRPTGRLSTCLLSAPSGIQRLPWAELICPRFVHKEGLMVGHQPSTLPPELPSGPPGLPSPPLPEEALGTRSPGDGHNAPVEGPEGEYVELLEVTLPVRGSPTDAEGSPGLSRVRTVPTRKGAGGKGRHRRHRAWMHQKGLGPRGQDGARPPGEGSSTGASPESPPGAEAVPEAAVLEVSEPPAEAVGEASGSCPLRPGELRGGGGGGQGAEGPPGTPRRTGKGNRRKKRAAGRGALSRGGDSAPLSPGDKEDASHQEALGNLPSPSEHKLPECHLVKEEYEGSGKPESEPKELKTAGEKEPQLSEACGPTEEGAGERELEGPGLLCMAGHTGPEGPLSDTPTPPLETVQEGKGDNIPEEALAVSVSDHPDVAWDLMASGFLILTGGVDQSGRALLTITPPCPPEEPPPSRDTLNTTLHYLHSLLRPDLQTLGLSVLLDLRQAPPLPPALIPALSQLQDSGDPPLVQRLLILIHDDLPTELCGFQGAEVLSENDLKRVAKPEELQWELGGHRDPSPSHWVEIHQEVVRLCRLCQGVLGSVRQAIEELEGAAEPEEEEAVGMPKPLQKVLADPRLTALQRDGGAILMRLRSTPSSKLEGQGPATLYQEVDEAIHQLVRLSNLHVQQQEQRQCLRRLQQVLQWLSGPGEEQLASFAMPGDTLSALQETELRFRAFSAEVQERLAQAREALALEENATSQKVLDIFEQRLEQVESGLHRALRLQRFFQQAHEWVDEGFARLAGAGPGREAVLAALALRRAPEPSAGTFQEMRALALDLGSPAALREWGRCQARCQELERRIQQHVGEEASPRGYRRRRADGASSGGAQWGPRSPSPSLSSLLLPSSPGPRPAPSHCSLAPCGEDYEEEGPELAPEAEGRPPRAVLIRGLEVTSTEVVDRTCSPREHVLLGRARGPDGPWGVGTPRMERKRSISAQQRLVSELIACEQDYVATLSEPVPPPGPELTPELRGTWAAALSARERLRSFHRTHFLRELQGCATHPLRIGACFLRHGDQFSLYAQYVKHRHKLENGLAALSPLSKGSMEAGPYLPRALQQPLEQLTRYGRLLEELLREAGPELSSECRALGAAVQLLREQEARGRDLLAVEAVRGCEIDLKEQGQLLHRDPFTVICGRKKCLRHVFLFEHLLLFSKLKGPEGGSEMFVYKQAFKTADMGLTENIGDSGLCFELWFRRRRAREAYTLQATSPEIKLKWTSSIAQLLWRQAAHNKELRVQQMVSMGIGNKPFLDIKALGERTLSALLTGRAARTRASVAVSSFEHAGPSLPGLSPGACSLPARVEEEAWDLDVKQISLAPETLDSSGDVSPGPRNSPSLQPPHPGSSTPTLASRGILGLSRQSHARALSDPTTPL
Sequence of UniProt O60826 (whole entry, looked up): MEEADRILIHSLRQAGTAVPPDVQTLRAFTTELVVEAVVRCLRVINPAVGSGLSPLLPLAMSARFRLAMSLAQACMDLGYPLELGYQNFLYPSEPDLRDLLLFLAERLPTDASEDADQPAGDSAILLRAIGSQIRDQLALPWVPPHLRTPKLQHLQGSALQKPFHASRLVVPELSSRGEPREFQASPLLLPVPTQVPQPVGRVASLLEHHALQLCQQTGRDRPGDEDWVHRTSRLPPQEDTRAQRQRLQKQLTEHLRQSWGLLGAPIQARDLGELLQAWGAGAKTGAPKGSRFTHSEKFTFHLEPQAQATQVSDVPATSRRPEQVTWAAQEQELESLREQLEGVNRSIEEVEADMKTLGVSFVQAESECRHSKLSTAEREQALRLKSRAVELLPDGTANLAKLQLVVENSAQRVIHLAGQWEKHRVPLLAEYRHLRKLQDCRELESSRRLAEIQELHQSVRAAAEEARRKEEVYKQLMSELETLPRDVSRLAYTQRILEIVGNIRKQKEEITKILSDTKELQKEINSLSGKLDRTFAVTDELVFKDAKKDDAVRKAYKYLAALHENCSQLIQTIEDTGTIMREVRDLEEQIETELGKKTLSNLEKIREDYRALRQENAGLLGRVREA
Sequence of UniProt P13393 (whole entry, looked up): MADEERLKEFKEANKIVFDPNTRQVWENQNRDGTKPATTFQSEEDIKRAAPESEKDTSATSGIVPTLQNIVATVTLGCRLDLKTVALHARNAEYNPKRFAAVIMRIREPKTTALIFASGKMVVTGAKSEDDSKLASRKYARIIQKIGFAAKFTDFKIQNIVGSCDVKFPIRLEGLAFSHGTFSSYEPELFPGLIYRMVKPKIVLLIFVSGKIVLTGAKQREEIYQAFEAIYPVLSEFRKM
Sequence of UniProt Q9LY00 (whole entry, looked up): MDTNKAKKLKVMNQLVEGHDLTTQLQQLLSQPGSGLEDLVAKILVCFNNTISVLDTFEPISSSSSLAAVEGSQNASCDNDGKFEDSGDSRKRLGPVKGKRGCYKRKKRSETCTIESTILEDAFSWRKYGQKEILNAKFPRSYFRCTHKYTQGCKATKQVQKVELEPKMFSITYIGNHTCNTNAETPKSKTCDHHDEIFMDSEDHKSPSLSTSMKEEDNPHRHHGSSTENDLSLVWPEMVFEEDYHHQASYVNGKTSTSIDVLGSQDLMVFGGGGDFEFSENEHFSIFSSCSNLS
Sequence of UniProt Q9Z0W5 (whole entry, looked up): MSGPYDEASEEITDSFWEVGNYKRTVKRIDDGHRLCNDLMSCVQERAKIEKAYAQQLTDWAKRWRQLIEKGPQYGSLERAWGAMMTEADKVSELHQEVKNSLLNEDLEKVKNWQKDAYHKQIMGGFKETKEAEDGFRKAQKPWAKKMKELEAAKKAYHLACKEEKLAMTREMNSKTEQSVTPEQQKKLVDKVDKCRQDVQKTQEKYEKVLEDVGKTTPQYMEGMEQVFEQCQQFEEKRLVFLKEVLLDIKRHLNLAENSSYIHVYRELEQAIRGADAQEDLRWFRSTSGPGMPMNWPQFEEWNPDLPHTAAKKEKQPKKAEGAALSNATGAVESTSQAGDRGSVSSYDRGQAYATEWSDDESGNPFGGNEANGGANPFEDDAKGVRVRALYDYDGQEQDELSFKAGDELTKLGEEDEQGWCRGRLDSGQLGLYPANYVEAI
Sequence of UniProt O95721 (whole entry, looked up): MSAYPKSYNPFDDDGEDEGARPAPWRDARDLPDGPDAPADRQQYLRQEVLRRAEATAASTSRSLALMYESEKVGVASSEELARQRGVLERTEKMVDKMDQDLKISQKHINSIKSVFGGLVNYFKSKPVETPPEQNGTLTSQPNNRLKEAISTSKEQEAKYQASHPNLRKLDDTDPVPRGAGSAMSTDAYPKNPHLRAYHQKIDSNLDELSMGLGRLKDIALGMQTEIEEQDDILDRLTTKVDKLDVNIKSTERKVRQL

`B1 (POL30 1-258)` — result for binding: “binds” (CTF18/CTF8/DCC1/RFC2/RFC3/RFC4/RFC5 clamp loader complex (Saccharomyces cerevisiae); cryo-EM).
For `B2 (Rai14 17-400)`, binding read “binds” (Pacsin1 (Rattus norvegicus, UniProt Q9Z0W5); co-sedimentation).
`B3 (abo1)`: binding “binds” (T1, spt16/pob3 C-terminal deleted 1-937 (Schizosaccharomyces pombe); native gel).
Under binding, `ARHGEF40 (Homo sapiens, UniProt Q8TER5)` is recorded as “binds” (ARHGEF11 (Homo sapiens, UniProt O15085); co-IP).
`B4 (VAMP8 8-73)` — result for binding: “binds” (SNAP29 (Homo sapiens, UniProt O95721); pull-down).
For `KESALRKQDLLLIFDPLLR (TACC3 to 568 550-568 S558D/Y560L/K562I (Homo sapiens, UniProt Q9Y6A5); sequence looked up)`, binding read “binds” (CLTC 358-574 (Homo sapiens, UniProt Q00610); peptide array; peptide).
The Kd of `CTGAAGGGGGGGCTATAAAAGTTTATGGGGGCTCCTCAAGTCAATCGGTCC (dsDNA; 5'-amino-C6 primer)` is reported as 16.6 ± 2 nM (SPT15 full length assumed (Saccharomyces cerevisiae, UniProt P13393); array; double-stranded DNA, one strand shown; TBP alone).
For `B5 (PFD3)`, binding read “binds” (WRKY70 (Arabidopsis thaliana, UniProt Q9LY00); pull-down).
With `AACUUUUUU (ssRNA)` the Kd was 2450 nM (U2AF2; sequencing of bound RNA; RNA; motif only).
`B6 (CCDC93 305-433)` — result for binding: “binds” (CCDC22 280-446 (Homo sapiens, UniProt O60826); SEC).
`UAUAUUGUU (ssRNA)` has a Kd of 11400 nM (U2AF2; sequencing of bound RNA; RNA; motif only).
`B7 (SETX 1-1721)` — result for binding: “binds” (BRCA1/BARD1 (Homo sapiens); pull-down).

Some of these lines once more:
Under binding, `ARHGEF40 (Homo sapiens, UniProt Q8TER5)` is recorded as “binds” (ARHGEF11 (Homo sapiens, UniProt O15085); co-IP).
`B4 (VAMP8 8-73)` — result for binding: “binds” (SNAP29 (Homo sapiens, UniProt O95721); pull-down).
